Results pooled from the literature.
Lines come from different studies, so protocols differ. “And” joins repeats or separate records; there may be more than shown. ± gives the spread as reported. No end group written: not given here.
B1: bicyclic; chain AATCHCRRSCYSTEYSYGTCTVMGINHRFCCL (also: bicyclic or more (positions not given here))

`Polymyxin B`: “log2 fold change” -4.7 (untargeted LC-MS metabolomics, item: carnosine; Sprague-Dawley rat, right cerebral cortex; intracerebroventricular, 0.75 mg/kg, 1 h; relative to: NaCl control).
The retention time of `CTOP` is reported as 11.9 min (RP-HPLC; HALO RP-amide column; 25 µM, acetic acid/methanol, 25 min gradient).
Under CSF concentration, `enterolactone sulfate` is recorded as “not detected” (human, cerebrospinal fluid; dose not given, mean).
For `coproporphyrin I`, the urine concentration was 19.5 nM (healthy human volunteers, urine; dose not given, 0-24 h, median, cumulative urine, together with: ezetimibe plus rifampin).
`FNA / CGLSGLGVA-NH2 ([18F]FNA-labelled, C-amide)` has a tissue uptake of 0.34 %ID/g (ex vivo gamma counting; peptide, healthy mice, large intestine; dose not given, 60 min).
`GSGAGKETYY` gave a binding intensity of -0.026 (human MAGI1-2/6 PDZ construct (MBP fusion); automated holdup; peptide, crude extract; concentration not given, corrected by standard peak, unit not given; relative to: biotin control resin, higher = stronger binding).
For `B1`, “sedimentation coefficient s20,w” read 0.783 S (sedimentation velocity ultracentrifugation; 10 mM Tris-maleate; 160 µM, pH 6.4, 20 °C).
`KTKEGVVHGVATVA` — result for “secondary structure content”: 30.1% (far-UV circular dichroism; peptide, PBS; 10 µM, pH 7.4, 25 °C).
The binding intensity of `GSGAGIATEV` is reported as -0.00635 (human MAGI1-2/6 PDZ construct (MBP fusion); automated holdup; peptide, crude extract; concentration not given, corrected by standard peak, unit not given; relative to: biotin control resin, higher = stronger binding).
The nanofiber height of `ESLSLSLSLSLSLEGTVFTSWEEYLDWV` is reported as 2.2 ± 0.2 nm (AFM; peptide, dried on mica; 0.1 wt%).
With `TFFYGGSRGRRNNFRTEEY-OH (C-acid)` the brain uptake was 0.062 ± 0.004% (in situ brain perfusion; peptide, mouse, right brain hemisphere; 5 min; relative to: input).
For `caspofungin`, the magnesium was 0.8 mmol/L (adult ICU patients, mITT, serum; dose not given, day 30).
With `Fluorescein isothiocyanate` the encapsulation efficiency was > 90% (PSP-2 condensates in DMEM; concentration not given, together with: cargo 5 µM).
`Rilpivirine docusate` has an equilibrium solubility of 0.13 ± 0.1 µg/mL (water).
With `GPSQPTYPGDDAAVEDLIRFYDNLQQYLNVVTRHRY` the melting temperature was 49.5 ± 2 °C (CD thermal denaturation; peptide, sodium phosphate buffer with NaCl; 30 µM, pH 7.4).
Under “highest total concentration”, `Teicoplanin` is recorded as 98.5 mg/L (UPLC-MS/MS; critically ill haematology patients, serum; dose not given).
With `hemoglobin alpha` the co-IP enrichment was 16.2 (co-immunoprecipitation; human RBC membrane; DMTMM crosslinker, unit not given, together with: Band 3 peptide 1-56 bait; relative to: negative control).
`regorafenib N-β-glucuronide`: “long-term stability accuracy” 90.9% (mouse plasma; 750 ng/mL, 6 months, -80 °C).
For `daptomycin`, the recovery was 101% (stock solution; 24 months, -40 °C).
With `LVHYTHCGSLGV` the body weight was 21.1 g and 21.2 g (Epstein-Barr virus; peptide, EBV-infected humanized B-NDG mice; 20 mg/kg, day 0).

Repeated from above:
For `caspofungin`, the magnesium was 0.8 mmol/L (adult ICU patients, mITT, serum; dose not given, day 30).
The nanofiber height of `ESLSLSLSLSLSLEGTVFTSWEEYLDWV` is reported as 2.2 ± 0.2 nm (AFM; peptide, dried on mica; 0.1 wt%).
Under “highest total concentration”, `Teicoplanin` is recorded as 98.5 mg/L (UPLC-MS/MS; critically ill haematology patients, serum; dose not given).
